Experimental data pooled from the literature.
Numbered parts are unrelated; each lists some results of a single study. Changes are numbered by the printed parent chain.

Sample 1 — technique: RNA Bind-n-Seq; form: RNA; medium: in vitro; concentration: 200 nM; notes: whole 134-nt RNA, ends assumed; with: 150 mM KCl; reference: input library; reading: higher = stronger binding
Target: Ras GTPase-activating protein-binding protein 1, full length (G3BP1, Homo sapiens, UniProt Q13283)
UniProt Q13283, sequence (whole entry, looked up): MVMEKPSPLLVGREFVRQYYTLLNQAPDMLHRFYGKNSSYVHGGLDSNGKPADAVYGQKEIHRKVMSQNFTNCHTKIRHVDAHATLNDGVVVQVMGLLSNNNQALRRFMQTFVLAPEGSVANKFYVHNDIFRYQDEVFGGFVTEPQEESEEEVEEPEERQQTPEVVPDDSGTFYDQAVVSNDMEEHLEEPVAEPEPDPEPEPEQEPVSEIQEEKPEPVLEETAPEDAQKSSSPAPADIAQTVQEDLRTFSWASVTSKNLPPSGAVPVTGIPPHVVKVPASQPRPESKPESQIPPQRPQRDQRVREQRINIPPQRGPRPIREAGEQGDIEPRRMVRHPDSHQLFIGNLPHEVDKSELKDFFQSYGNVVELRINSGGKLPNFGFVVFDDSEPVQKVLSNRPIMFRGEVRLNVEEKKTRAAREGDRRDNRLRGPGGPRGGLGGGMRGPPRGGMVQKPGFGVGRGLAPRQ
All sequences stand within: GGGAGUUCUACAGUCCGACGAUC … UGGAAUUCUCGGGUGUCAAGG
Oligonucleotide | log2 enrichment
UGAAAAUUCUCGACUGGCUGCUGAGGUUUACAAAGACAUGCCGGAAACCAGCUUUACUCGAACCAUUUCUAAUCCUGAGGUGGUUAUGAA | -1.65
CCUGUGCUACACAUCGUAUGUACCGAAUCGGGGUUUUUGGGGAAAAAAAGGGGUUUGGGGAAAGUAUUAUGUUACGCCGUUCGGAUCUGC | 0.327
UGUGCUACACAUCGUAUGUACCGAAUCGGGGAAAAAAAGGGGAAAAAGGGGUUUUUUUGGGGAAAGUAUUAUGUUACGCCGUUCGGAUCU | -0.135
ACCAUGCAGGUGGGCAUCUUUGGGAAGUGGGGCAAGGGGGGGAUAGGGAGGGGGGUAACAUUUUGGGAACAGGUGGUCCCAGGUCGUUUC | 1.25
AAGUCCUGUGCUACACAUCGUAUGUACCGAAUCGGGUUUGGGAAAAAGGGAAAGGGAAAGUAUUAUGUUACGCCGUUCGGAUCUGCACUU | 0.38
AGCAUGCAGGUGGGCAUCUUUGGGAAGUGGGGCAAGGGGGGGAUAGGGAGGGGGGUAACACUUUGGGAACAGGUGGUCCCAGGUCGUUUC | 1.38
AAGUCCUGUGCUACACAUCGUAUGUACCGAAUCGGGAAAGGGUUUGGGAAAAAGGGAAAGUAUUAUGUUACGCCGUUCGGAUCUGCACUU | -0.223
CCUGUGCUACACAUCGUAUGUACCGAAUCGGGUUUUUUGGGUUUUUUGGGGUUUUUUGGGAAAGUAUUAUGUUACGCCGUUCGGAUCUGC | -0.607
UAAGGAUUCUAUCUGCUUACUGCUACAGACCUAUGUGUUAAGGAAUUCUUCUCCUCCUCCUUGCGUAGAAGUUGAUCAGCACUGUGGUCA | 0.0516
AGUCCUGUGCUACACAUCGUAUGUACCGAAUCGGGGUGGGGAAAAAAAGGGGUGGGGAAAGUAUUAUGUUACGCCGUUCGGAUCUGCACU | 0.247

Sample 2 — target: CCNA2, cyclin fold, Cln2 fusion (human); technique: yeast growth competition, sequencing; medium: yeast; notes: weak parent motif; reference: not given; reading: higher = stronger binding
Starting sequence: LLGL2 docking peptide (human); KSLKKSLRQSFRR
Change | normalised enrichment score
KSLKKSLRASFRR [Q9A] | 1.45
KSLKKALRQSFRR [S6A] | 0.689
KSAKKSLRQSFRR [L3A] | 0.746
KSLKKSLRQSFRA [R13A] | 1.14
ASLKKSLRQSFRR [K1A] | 0.765
KSLKKSLRQSFAR [R12A] | 1.53
KSLKKSARQSFRR [L7A] | 0.863

Sample 3 — target: CREB3L1, bZIP domain (human); technique: DHFR protein complementation; medium: yeast; reference: wild-type JUN-FOS pair; reading: higher = stronger binding
Notes: single substitutions, most at no-binding floor
Starting sequence: JUN, bZIP domain (human); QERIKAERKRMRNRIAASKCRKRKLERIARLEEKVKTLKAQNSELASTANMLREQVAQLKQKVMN; partner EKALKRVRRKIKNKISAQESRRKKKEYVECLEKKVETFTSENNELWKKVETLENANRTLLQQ
Change | binding fitness
S47P | -1.54 natural log
S47R | -1.29 natural log
K36L | -1.44 natural log
Q41V | -1.47 natural log
R53L | -1.41 natural log
A46T | -1.43 natural log
A49K | -1.39 natural log
Q55L | -1.47 natural log
K36A | -1.21 natural log
L45D | -1.53 natural log
S43G | -1.34 natural log
E54V | -1.37 natural log
A29F | -1.47 natural log
S47N | -1.24 natural log
K34T | -1.42 natural log
E33D | -1.43 natural log
Q41M | -1.29 natural log
I28M | -1.55 natural log
K39I | -1.48 natural log
R30G | -1.26 natural log

Sample 4 — technique: universal PBM; form: double-stranded DNA, one strand shown; medium: in vitro; concentration: not given; reading: higher = stronger binding
Target: Sal-like protein 4, full length isoform B (SALL4, Homo sapiens, UniProt Q9UJQ4-2, residues 1-616)
Notes: 8-mer, flanks averaged, mean of replicates
Target sequence (chain): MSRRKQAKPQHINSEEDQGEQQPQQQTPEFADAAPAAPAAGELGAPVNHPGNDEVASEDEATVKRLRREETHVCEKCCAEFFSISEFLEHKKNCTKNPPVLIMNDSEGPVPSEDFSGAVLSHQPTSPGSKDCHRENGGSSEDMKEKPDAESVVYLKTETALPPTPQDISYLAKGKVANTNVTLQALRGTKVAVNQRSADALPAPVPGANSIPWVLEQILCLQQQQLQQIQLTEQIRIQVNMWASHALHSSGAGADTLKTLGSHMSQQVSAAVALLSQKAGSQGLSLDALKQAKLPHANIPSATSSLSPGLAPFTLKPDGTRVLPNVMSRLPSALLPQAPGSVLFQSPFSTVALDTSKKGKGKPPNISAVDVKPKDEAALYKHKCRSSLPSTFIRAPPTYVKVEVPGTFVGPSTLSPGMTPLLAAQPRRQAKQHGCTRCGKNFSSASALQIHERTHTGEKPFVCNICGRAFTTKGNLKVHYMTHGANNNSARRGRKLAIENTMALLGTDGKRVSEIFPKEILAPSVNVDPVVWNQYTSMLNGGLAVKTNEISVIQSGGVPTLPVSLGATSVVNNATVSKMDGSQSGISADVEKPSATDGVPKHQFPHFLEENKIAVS
Oligonucleotide | E-score
CGGTTCTC | -0.172
GTCAGACA | -0.0109
AGCCTAGC | -0.239
CAGATACA | 0.211
CGCTCGTA | -0.0889
ACACACAC | -0.0109
GATATCCC | 0.0601
CCAAGAGG | -0.186
ACCTGCCG | -0.233
AGCGTAGC | -0.114
AACTCTAC | -0.143
ATGAAATA | 0.313
CAGAAGGG | -0.133
ATAGAGAA | 0.215
GGCTGAGA | -0.121
AAGTAGGT | -0.0645
ACTACGCC | -0.172
ATCGACAC | -0.0398
CTGGATAA | 0.0444
AAGGGTAA | 0.0399
ACGATGCA | -0.00137
CACGTTGA | -0.102
ATCAAGTA | 0.0935
ATCTAAGA | 0.089
GAACCATC | -0.071

Sample 5 — technique: DHFR PCA, deep sequencing; medium: yeast; with: (+)-ABA 710 µM; reference: wild-type fitted maximum; reading: higher = stronger binding
Target: ABI1, truncated, D143A, DHFR fusion (Arabidopsis thaliana)
Notes: methotrexate growth selection, single substitutions
Starting sequence: PYL1, truncated, DHFR fusion (Arabidopsis thaliana); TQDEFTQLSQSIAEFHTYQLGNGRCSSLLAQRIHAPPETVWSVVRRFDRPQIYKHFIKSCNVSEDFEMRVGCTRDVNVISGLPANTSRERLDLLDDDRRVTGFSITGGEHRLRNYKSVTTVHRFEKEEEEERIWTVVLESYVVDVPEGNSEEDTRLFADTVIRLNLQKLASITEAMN; partner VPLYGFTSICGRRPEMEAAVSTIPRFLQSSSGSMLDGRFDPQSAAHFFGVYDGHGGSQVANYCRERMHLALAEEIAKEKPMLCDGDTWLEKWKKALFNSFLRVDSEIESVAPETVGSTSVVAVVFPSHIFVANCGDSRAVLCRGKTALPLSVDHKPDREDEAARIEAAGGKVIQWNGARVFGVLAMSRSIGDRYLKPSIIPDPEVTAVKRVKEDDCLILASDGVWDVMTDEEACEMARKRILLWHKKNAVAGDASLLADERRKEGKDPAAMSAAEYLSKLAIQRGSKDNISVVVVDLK
Change | relative binding score [%]
C72V | 102
R111Y | 70
T73R | 95.1
I52K | 97.9
E4G | 95.8
Q2E | 105
P37Q | 89.1
T6W | 106
Q51P | 33.4
D159C | 69.7
N85V | 108
D75Y | 100
A170H | 64.2
G23E | 94.4
T106M | 104
Q167N | 96.3
F124R | 91.5

Sample 6 — Substance: HNRNPDL (Homo sapiens, UniProt O14979); technique: cross-linking MS; notes: hits only
partner | interaction screen
VIM (Homo sapiens, UniProt P08670) | cross-linked
HNRNPL (Homo sapiens, UniProt P14866) | cross-linked
HNRNPU (Homo sapiens, UniProt Q00839) | cross-linked
HNRNPA1 (Homo sapiens, UniProt P09651) | cross-linked

Further values, each from its own experiment
Substance | target | test | system | conditions | how to read | endpoint | result
PhoQ, residues 284 288 289 292 302 303 WSHMKI | PhoP, residues 12 14 15 18 19 AGCRL (Escherichia coli, UniProt P23836) | Sort-seq, item: YFP reporter | E. coli | PhoQ-PhoP variant library, with: 10 µM Mg2+ | reference: high Mg2+ state, higher = stronger signaling | fold induction | 13.3

For quick reference, copied from above (sample 5):
Change | relative binding score [%]
R111Y | 70
T73R | 95.1
I52K | 97.9
E4G | 95.8
Q2E | 105
